Assay results of several laboratories.
Protocols differ between the studies behind these lines. Numbers after ± are the reported error.
Sequence of UniProt Q06124 (whole entry, looked up): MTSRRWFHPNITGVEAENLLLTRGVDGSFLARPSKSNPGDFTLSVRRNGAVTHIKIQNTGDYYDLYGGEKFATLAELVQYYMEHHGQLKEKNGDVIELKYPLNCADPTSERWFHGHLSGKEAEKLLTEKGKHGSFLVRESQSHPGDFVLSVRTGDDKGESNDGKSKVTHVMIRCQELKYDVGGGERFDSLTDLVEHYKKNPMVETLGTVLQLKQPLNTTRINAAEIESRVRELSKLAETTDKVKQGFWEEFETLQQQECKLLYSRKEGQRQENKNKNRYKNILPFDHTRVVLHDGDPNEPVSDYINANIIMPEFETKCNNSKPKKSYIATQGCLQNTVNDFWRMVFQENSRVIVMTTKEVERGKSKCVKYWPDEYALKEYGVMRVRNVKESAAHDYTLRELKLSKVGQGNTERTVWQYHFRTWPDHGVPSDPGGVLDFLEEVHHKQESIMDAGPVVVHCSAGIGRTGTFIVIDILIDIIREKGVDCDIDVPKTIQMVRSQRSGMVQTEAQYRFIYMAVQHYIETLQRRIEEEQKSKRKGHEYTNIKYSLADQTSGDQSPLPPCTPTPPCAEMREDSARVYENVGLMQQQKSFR
Sequence of UniProt P06213 (whole entry, looked up): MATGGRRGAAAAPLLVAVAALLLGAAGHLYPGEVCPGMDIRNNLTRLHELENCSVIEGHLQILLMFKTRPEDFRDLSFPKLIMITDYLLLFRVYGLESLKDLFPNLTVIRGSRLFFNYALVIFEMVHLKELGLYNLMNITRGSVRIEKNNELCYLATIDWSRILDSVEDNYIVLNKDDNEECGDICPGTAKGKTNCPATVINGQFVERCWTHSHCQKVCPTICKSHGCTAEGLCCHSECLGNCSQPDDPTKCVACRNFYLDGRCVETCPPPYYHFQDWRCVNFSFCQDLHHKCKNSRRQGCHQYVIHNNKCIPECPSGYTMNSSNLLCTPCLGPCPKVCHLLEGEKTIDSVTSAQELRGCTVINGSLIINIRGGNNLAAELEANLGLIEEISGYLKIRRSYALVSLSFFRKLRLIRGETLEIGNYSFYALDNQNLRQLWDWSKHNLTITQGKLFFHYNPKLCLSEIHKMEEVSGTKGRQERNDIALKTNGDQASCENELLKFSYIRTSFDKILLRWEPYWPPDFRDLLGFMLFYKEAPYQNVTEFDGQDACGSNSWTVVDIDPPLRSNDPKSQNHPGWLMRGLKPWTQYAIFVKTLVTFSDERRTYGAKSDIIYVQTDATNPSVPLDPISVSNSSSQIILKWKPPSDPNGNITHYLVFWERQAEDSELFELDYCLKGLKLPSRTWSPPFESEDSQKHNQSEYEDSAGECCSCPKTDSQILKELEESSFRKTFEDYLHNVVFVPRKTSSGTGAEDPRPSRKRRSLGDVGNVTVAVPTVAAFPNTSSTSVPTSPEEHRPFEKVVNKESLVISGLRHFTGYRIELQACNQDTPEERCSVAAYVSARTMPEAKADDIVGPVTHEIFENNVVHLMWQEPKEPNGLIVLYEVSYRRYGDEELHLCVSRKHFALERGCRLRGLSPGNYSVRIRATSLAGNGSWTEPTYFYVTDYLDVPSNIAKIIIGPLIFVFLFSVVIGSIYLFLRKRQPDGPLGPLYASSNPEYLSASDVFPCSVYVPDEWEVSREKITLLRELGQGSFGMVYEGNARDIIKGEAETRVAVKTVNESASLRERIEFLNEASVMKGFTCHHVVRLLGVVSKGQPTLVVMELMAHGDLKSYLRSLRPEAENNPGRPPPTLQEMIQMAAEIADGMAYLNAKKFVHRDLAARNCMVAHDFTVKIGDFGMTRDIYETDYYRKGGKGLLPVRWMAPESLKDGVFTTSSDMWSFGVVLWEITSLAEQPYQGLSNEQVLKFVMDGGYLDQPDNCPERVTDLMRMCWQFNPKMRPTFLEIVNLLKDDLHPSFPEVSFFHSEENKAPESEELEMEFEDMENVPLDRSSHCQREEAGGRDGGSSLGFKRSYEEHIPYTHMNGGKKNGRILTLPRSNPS

`O=C(NCc1ccc(C(F)(F)F)cc1)c1cn(Cc2ccc(F)cc2)c2ccc(Oc3ccccc3)cc2c1=O` gave a CC50 of 43.1 ± 0.82 µM (MDA-MB-468; 72 h).
`CCc1cnc(NC(=O)/C=C/c2cccs2)nc1`: antifungal activity “inactive” (Candida albicans; concentration not given).
With `O=C(NCc1ccc(Cl)cc1)c1cn(Cc2ccc(Cl)cc2)c2ccc(Oc3ccccc3)cc2c1=O` the CC50 was over 100 µM (T47D; 72 h, 10% FBS).
`Cc1ccc(N=Nc2c(N)nn3c(-c4ccc(C)cc4)cc(-c4ccc(OCc5ccccc5)cc4)nc23)cc1` has an MFC/MIC ratio of 4 (Saccharomyces cerevisiae; broth microdilution; ATCC 9763).
Under “covalent adduct formation”, `C=CS(=O)(=O)Oc1ccccc1` is recorded as 21% (Tyrosine-protein phosphatase non-receptor type 11 (PTPN11, Homo sapiens, UniProt Q06124); intact protein LC-MS; 20 µM, 60 min, protein 10 µM).
`O=C(NCc1ccc(O)cc1)c1cn(Cc2ccc(F)cc2)c2ccc(Oc3ccccc3)cc2c1=O` gave a CC50 of 85.7 ± 2.4 µM (T47D; 72 h, 10% FBS).
`Nc1nn2c(-c3ccc(Cl)cc3Cl)cc(-c3ccc(OCc4ccccc4)cc3)nc2c1N=Nc1ccc(F)cc1` has an MFC/MIC ratio of 2 (Candida albicans; broth microdilution; ATCC 10231).
The CC50 of `O=C(NCc1ccccc1)c1cn(Cc2ccc(C(F)(F)F)cc2)c2ccc(Oc3ccccc3)cc2c1=O` is reported as 5.52 µM (MDA-MB-231/LM2-4; cytotoxicity; 10% FBS).
`O=C(Nc1cc(-c2ccc(Cl)cc2)[nH]n1)C1CCCCC1` gave a remaining activity of 86% (Insulin receptor (INSR, Homo sapiens, UniProt P06213); enzyme activity, Dundee kinase panel; 10 µM).

A few entries again:
With `O=C(NCc1ccc(Cl)cc1)c1cn(Cc2ccc(Cl)cc2)c2ccc(Oc3ccccc3)cc2c1=O` the CC50 was over 100 µM (T47D; 72 h, 10% FBS).
